{"data": "Measured values collected from several papers", "note": "A part holds a random share of what one study measured."}
{"data": "Set 1", "target": "RNA binding protein fox-1 homolog 2, RRM domain, GST-SBP tag (RBFOX2, Homo sapiens, UniProt O43251-10, residues 100-194)", "technique": "RNA Bind-n-Seq", "form": "RNA", "medium": "in vitro", "concentration": "365 nM", "setting": "natural RNA segment, single round, ends assumed", "reference": "no-protein control", "direction": "higher = stronger binding", "Construct (chain)": "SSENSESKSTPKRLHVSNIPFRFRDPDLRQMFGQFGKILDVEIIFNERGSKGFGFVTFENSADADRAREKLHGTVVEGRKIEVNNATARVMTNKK"}
{"Sequence": "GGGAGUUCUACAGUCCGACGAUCGCAACUCAGUGGCCAUUCUUCUGCCUUCCCAGACCUUAGUUUUAUAAAGCAUUGUCUGUUCCAGAGUGGCCUUUGAAGAGACUGAAUAAUCACUUCGUCAUAAUGUUAAGUGGAAUUCUCGGGUGCCAA", "RBNS enrichment (R)": 0.474}
{"Sequence": "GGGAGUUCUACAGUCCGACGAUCACUGGGAGCCACCACCUCCGGCUCCUGGGUGACUUUACACCUAGAUGCUCCGAGAGCUACUGCAUCUGGGACUGUGUCCUUUCUCUGGGAGGCAGUCUUGUCACCUCCCAUGGAAUUCUCGGGUGCCAA", "RBNS enrichment (R)": 0.763}
{"Sequence": "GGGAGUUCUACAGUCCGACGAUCGUAAGAGUUCCCACUGGCCUUGCUCUGAGGCCAAGAGCUUUUUCAAAUGCAGGCUGCAGGAUUAAGCCAGCUCUUAUGCAACUGACUGUCCUUAAUGAAGAACUCAUAAAUGGAAUUCUCGGGUGCCAA", "RBNS enrichment (R)": 0.274}
{"Sequence": "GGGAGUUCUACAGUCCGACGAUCCAGCUCCCCUUCAGUCAGUGUUGUCCAGCAACGGUACCGUUUACACAUUCACCUCCGACACGCCAUUUCACCUCCCUCGCCACACUGUUAGCCUUAGUGAUUGCAGUGAAUGGAAUUCUCGGGUGCCAA", "RBNS enrichment (R)": 0.861}
{"Sequence": "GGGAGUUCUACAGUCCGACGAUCCCAAGUCUGGCACCAUGUUGGCCUCUUCAGGCCUGCUAGUCACUGGAAAUUGAGGUCCAUGGGGGAAAUCAAGGAUGCUCAGUUUAAGGUACACUGUUUCCAUGUUAUGUUGGAAUUCUCGGGUGCCAA", "RBNS enrichment (R)": 0.287}
{"Sequence": "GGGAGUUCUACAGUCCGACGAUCUUUCUCGAUUAGGCGUAUGGGUUUUGAAAAAGAGAUUUUUCAGAAGAUUGUCAGCUUCAGUAUUCAUGUUCCAUCGUGUCAUCUGGGUCUGUUAGUGUAGUGACCCUCAGUGGAAUUCUCGGGUGCCAA", "RBNS enrichment (R)": 2.11}
{"Sequence": "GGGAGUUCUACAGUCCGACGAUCAAAGCACACCAUGGUGGGAGAGGUGUGGCAGGCAUUGCUCGAGCAUCCUGGCUCUCCCAUGCCUCCCGCAGCCGCGGCAUUUCAUUCUACAUGGCGCUGAGCCCCAACUCUGGAAUUCUCGGGUGCCAA", "RBNS enrichment (R)": 0.963}
{"Sequence": "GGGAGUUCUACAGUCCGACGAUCCAUUUUCUAAACAAAAAAAAUGGUUUUUUUCUUUGCCUUGUAAUAAGAUUGUAAAUCCAUUUCCUGCUUGUGUUCUUAGUGGGCAUGAUUGUGAGUGUGUGUGGGGUGCUUGGAAUUCUCGGGUGCCAA", "RBNS enrichment (R)": 3.83}
{"Sequence": "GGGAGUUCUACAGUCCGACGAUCGGAAGUCCAGAAAGGAAAAUAAUUUAAAUUAAUGCUGGUGAUCUUAACAAUAUUUUGUAAAAUGAUGCUUCCCCCUUCUCCAUGGUCUAGUCAAUUUUGUACAAUUAGGUUGGAAUUCUCGGGUGCCAA", "RBNS enrichment (R)": 0.558}
{"Sequence": "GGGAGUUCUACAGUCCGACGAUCAUUAUAUAUUGUGGUUUCUGUUUCUUGAAAGAAUUUUUUUCGUUAUUUUUACAUCUAACAAAGUAAAAAAAUUAAAAAGAGGGUAAGAAACGAUUCCGGUGGGAUGAUUUUGGAAUUCUCGGGUGCCAA", "RBNS enrichment (R)": 0.46}
{"Sequence": "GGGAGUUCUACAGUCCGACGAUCUUUAGGGUACUGUCCUGGUCAAAAUGACCUAAGGGGAAACCGUUGUUGUAAACCUCUUUAUUUUGGUGACUGUGACCACUUCUUUGUAGCCACCAAUUGUAGUGACCAGUUGGAAUUCUCGGGUGCCAA", "RBNS enrichment (R)": 0.316}
{"Sequence": "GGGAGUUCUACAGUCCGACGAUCGGAGGAAGCAAUUCCACUUGGUUUGACAACUUCUGCCACUCCCAUGUCAGAUGACUUGCACUUCUUAAAGAGAUUGCUUUAUAACACUAAGACAUCCUUUCUAAAGAUUCUGGAAUUCUCGGGUGCCAA", "RBNS enrichment (R)": 0.251}
{"data": "Set 2", "target": "Interferon regulatory factor 3, full length, phosphomimetic (IRF3, Homo sapiens, UniProt Q14653, residues 1-427, S386D/S396D/S398D/S402D/T404D/S405D)", "technique": "protein-binding microarray", "form": "double-stranded DNA, one strand shown", "medium": "in vitro", "concentration": "2540 nM top", "setting": "60-bp whole probe", "added": "salmon DNA 0.4 mg/ml", "reference": "random background probes", "direction": "higher = stronger binding", "constant ends, left off below": "GCCTAGCAC … GTCTTGATTCGCTTGACGCTGCTG", "sequence of UniProt Q14653 (whole entry, unmodified, looked up)": "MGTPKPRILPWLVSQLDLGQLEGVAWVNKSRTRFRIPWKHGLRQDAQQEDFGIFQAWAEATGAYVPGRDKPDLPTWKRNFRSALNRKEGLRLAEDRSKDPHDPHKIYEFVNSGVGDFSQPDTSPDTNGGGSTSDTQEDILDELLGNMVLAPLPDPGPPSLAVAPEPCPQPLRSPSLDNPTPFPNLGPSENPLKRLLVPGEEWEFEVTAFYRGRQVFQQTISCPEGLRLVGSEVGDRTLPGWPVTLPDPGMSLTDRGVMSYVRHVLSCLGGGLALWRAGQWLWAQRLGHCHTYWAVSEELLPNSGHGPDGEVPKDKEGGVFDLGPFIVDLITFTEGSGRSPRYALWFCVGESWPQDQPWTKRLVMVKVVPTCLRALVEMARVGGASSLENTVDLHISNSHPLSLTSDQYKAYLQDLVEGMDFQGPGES"}
{"Sequence": "TTAGGTCTCCTTATCCTTTGGTGCTAG", "fitted relative affinity [z-score]": 2.65}
{"Sequence": "ATAGATATCGGGACTGGATTAGTGCTA", "fitted relative affinity [z-score]": -0.0562}
{"Sequence": "GACGTTATCGGTTTCGGGACGTGCTAG", "fitted relative affinity [z-score]": 4.81}
{"Sequence": "CTAGGTCTCGGTTTCGGTTAGTGCTAG", "fitted relative affinity [z-score]": 5.06}
{"Sequence": "TTAGGTATCGGTTATCGGTTAGTGCTA", "fitted relative affinity [z-score]": 3.86}
{"Sequence": "CACGGTATCGACTATCGGGACGTGCTA", "fitted relative affinity [z-score]": 0.401}
{"Sequence": "TTGCTTTCCTTCTTGAACTCGTGCTAG", "fitted relative affinity [z-score]": 8.42}
{"Sequence": "TTAGCTTTCAGTTTCGATTAGTGCTAG", "fitted relative affinity [z-score]": 6.1}
{"Sequence": "GACGGTTTGCTTTCCCTGACGTGCTAG", "fitted relative affinity [z-score]": 2.08}
{"Sequence": "GACGATATCAGTTTTGAGACGTGCTAG", "fitted relative affinity [z-score]": 1.65}
{"Sequence": "GTCGGTCTCGGACTGGGGACGTGCTAG", "fitted relative affinity [z-score]": 0.848}
{"Sequence": "TTGTGTCTGGGCTTTTTCCCCGTGCTA", "fitted relative affinity [z-score]": -0.767}
{"Sequence": "GACGATCTCAGACTGAAGACGTGCTAG", "fitted relative affinity [z-score]": 0.467}
{"Sequence": "GACGATATCAGTTTCGAGACGTGCTAG", "fitted relative affinity [z-score]": 3.4}
{"data": "Single results of other studies"}
{"Molecule": "BMS1 (Homo sapiens, UniProt Q14692)", "target or system": "NAT10 (Homo sapiens, UniProt Q9H0A0)", "test": "cross-linking MS", "test system": "cell fractions", "conditions": "added: DMTMM", "endpoint": "cross-linked residues", "value": "K418 to D634"}
{"Molecule": "PhoQ, residues 284 288 289 292 302 303 TAVSDG", "target or system": "PhoP, residues 12 14 15 18 19 GQALL (Escherichia coli, UniProt P23836)", "test": "Sort-seq, item: YFP reporter", "test system": "E. coli", "conditions": "PhoQ-PhoP variant library, added: 10 µM Mg2+", "how to read": "reference: high Mg2+ state, higher = stronger signaling", "endpoint": "fold induction", "value": 15.5}
{"Molecule": "PPA1 (Homo sapiens, UniProt Q15181)", "target or system": "IQSEC1 (Homo sapiens, UniProt Q6DN90)", "test": "cross-linking MS", "test system": "cell fractions", "conditions": "added: DSSO", "endpoint": "cross-linked residues", "value": "K199 to S801"}
{"Molecule": "TXNDC9 (Homo sapiens, UniProt O14530)", "target or system": "CCT3 (Homo sapiens, UniProt P49368)", "test": "cross-linking MS", "test system": "cell fractions", "conditions": "added: DMTMM", "endpoint": "cross-linked residues", "value": "K201 to E69"}
{"Molecule": "EIF4A3 (Homo sapiens, UniProt P38919)", "target or system": "CCDC9 (Homo sapiens, UniProt Q9Y3X0)", "test": "cross-linking MS", "test system": "cell fractions", "conditions": "added: DSSO", "endpoint": "cross-linked residues", "value": "K19 to K284"}
